{"data": "Measured values gathered from unrelated publications", "OPG122": "mRNA-decapping protein OPG122 (OPG122, Vaccinia virus, UniProt P04312)", "Replicase polyprotein 1a papain-like protease": "Replicase polyprotein 1a, papain-like protease (Severe acute respiratory syndrome coronavirus 2, UniProt P0DTC1)", "bglR": "Beta-glucuronidase (bglR, Clostridium perfringens, UniProt Q8XP19)", "rep papain-like protease": "Replicase polyprotein 1ab, papain-like protease (rep, Middle East respiratory syndrome-related coronavirus, UniProt K9N7C7)", "note": "Lines come from different studies, so protocols differ. ± gives the spread as reported."}
{"SMILES": "CCCCCCCC(O)CC(=O)CCc1ccc(O)c(OC)c1 (centres unmarked)", "target": "Transcriptional activator VP30, with NP peptide (VP30, Zaire ebolavirus, UniProt Q05323)", "test system": "Ebola virus", "IC50 [µM]": 62}
{"SMILES": "Nc1nc(S)c2ncn(C3OC(COP(=O)(O)OP(=O)(O)OP(=O)(O)O)C(O)C3O)c2n1 (centres unmarked)", "target": "OPG122", "IC50 [µM]": "> 200"}
{"SMILES": "Cc1cc(O)cc(O)c1C(=O)O[C@@H]1CC2=C(COC([C@@H]3O[C@@H]3C)=C2)C(=O)[C@]1(C)O", "target": "Neuraminidase (NA, Influenza A virus, UniProt Q6DPL2)", "test system": "influenza A virus H5N1", "IC50 [µM]": "164 ± 4.6"}
{"SMILES": "Cc1ccc(N2CCCN(C)CC2)cc1C(=O)NC1(c2ccc3c4c(cccc24)CC3)CC1", "target": "Replicase polyprotein 1a papain-like protease", "test": "enzyme activity, inhibitor", "IC50 [µM]": 0.09}
{"SMILES": "CC(C)C[C@H](NC(=O)[C@H](CC(=O)O)NC(=O)[C@H](Cc1ccc(O)cc1)NC(=O)[C@H](CCCCN)NC(=O)[C@@H]1CSSC[C@@H]2NC(=O)[C@H](CCCCN)NC(=O)[C@H](CC(=O)O)NC(=O)[C@H](CC(N)=O)NC(=O)[C@H](CO)NC(=O)[C@@H]3CCCN3C(=O)[C@H](CC(N)=O)NC(=O)[C@@H]3CSSC[C@H](NC(=O)[C@H](C(C)C)NC(=O)[C@H](CC(C)C)NC(=O)[C@H](CO)NC(=O)[C@H](CO)NC(=O)[C@H](CO)NC(=O)[C@H](CCCCN)NC(=O)[C@H](CSSC[C@H](NC(=O)[C@H](C)N)C(=O)N[C@@H](CC(C)C)C(=O)NCC(=O)N[C@@H](Cc4ccccc4)C(=O)NCC(=O)N[C@@H](CCC(=O)O)C(=O)N[C@@H](CCCCN)C(=O)N3)NC2=O)C(=O)N[C@@H](CO)C(=O)N[C@@H](CCC(N)=O)C(=O)N[C@@H](CCCCN)C(=O)N[C@@H](Cc2c[nH]cn2)C(=O)N[C@@H](CCCCN)C(=O)N[C@@H](CCCCN)C(=O)N1)C(=O)O", "target": "SCN9A (Homo sapiens, UniProt Q15858)", "test": "ion current, inhibitor, patch clamp", "IC50 [µM]": "> 20"}
{"SMILES": "CC(=O)N[C@H]1CC(=O)NCCCC[C@@H](C(N)=O)NC(=O)[C@@H](Cc2ccccc2)NC(=O)[C@@H]2CCCN2C(=O)[C@H](CC(=O)O)NC(=O)[C@H](CC(=O)O)NC(=O)[C@H](Cc2ccc(O)cc2)NC(=O)[C@H](CCC(=O)O)NC1=O", "target": "Secreted effector protein (Yersinia pestis, UniProt O68720)", "IC50 [µM]": "~100"}
{"SMILES": "CN1CCN(c2nnnc3c2sc2nc(N4CCOCC4)c4c(c23)CCCC4)CC1", "target": "bglR", "IC50 [µM]": "5 ± 1"}
{"SMILES": "CC[C@H](C)[C@@H]1NC(=O)[C@@H]2CSSC[C@H](NC(=O)[C@H](CCCNC(=N)N)NC(=O)[C@@H]3CSSC[C@H](NC1=O)C(=O)N[C@@H]([C@@H](C)O)C(=O)N[C@@H](CCCNC(=N)N)C(=O)NCC(=O)N[C@@H](Cc1ccccc1)C(=O)N3)C(=O)N[C@@H](Cc1ccccc1)C(=O)N[C@H]1CSSC[C@H](NC(=O)[C@H](CO)NC(=O)[C@H](CO)NC(=O)[C@H](CCCNC(=N)N)NC(=O)CNC1=O)C(=O)N[C@@H](CC(=O)O)C(=O)N2", "target": "Lethal factor (Bacillus anthracis, UniProt P15917)", "test": "enzyme activity, inhibitor", "IC50 [µM]": "1.2 ± 0.084"}
{"SMILES": "CCC(CC)O[C@@H]1C=C(C(=O)O)C[C@H](NCc2ccc(-c3cnccn3)cc2)[C@H]1NC(C)=O", "target": "Neuraminidase (NA, Influenza A virus, UniProt P03468)", "test": "enzyme activity, inhibitor", "IC50 [µM]": 4.5}
{"SMILES": "Nc1ncnc2c1ncn2C1OC(COP(=O)(O)OP(=O)(O)OP(=O)(O)O)C(O)C1O (centres unmarked)", "target": "OPG122", "IC50 [µM]": 84}
{"SMILES": "CCC(C(=O)Nc1cccc(F)c1)n1cccc2nc(SCc3ccc(F)cc3)nc1-2 (centres unmarked)", "target": "rep papain-like protease", "test": "enzyme activity, inhibitor", "IC50 [µM]": "> 100"}
{"SMILES": "Cc1ccc(N)cc1C(=O)N[C@H](C)c1ccc2c3c(cccc13)CC2", "target": "Replicase polyprotein 1a papain-like protease", "test": "cell-free assay", "IC50 [µM]": 2.21}
{"SMILES": "CC(C)C[C@@H]1NC(=O)[C@H](CCCNC(=N)N)NC(=O)[C@@H]2CCCN2C(=O)[C@@H]2CSSC[C@H](NC(=O)CNC(=O)[C@@H]3CCCN3C(=O)[C@H](CCCCN)NC(=O)[C@H](CC(=O)O)NC(=O)[C@@H](NC(=O)CN)C(C)C)C(=O)N[C@@H](CCCNC(=N)N)C(=O)N[C@@H](Cc3ccc(O)cc3)C(=O)N[C@@H](CC(C)C)C(=O)N[C@@H](Cc3ccccc3)C(=O)NCC(=O)NCC(=O)N[C@H]3CSSC[C@H](NC(=O)CNC1=O)C(=O)N[C@@H](CCCCN)C(=O)NCC(=O)N[C@@H](CCCCN)C(=O)NCC(=O)N[C@@H](Cc1c[nH]cn1)C(=O)N[C@@H](CC(=O)O)C(=O)N[C@@H](Cc1ccc(O)cc1)C(=O)N[C@H](C(=O)N[C@@H](C)C(=O)N[C@@H](Cc1c[nH]c4ccccc14)C(=O)N[C@@H](CC(=O)O)C(=O)NCC(=O)N[C@H](C(=O)N[C@@H](Cc1ccccc1)C(=O)N[C@@H](CO)C(=O)N[C@@H](CC(=O)O)C(=O)O)[C@@H](C)O)CSSC[C@H](NC(=O)[C@H](CC(=O)O)NC(=O)[C@H](CC(=O)O)NC(=O)[C@H](CC(=O)O)NC(=O)[C@H](CO)NC(=O)[C@H](CCCCN)NC3=O)C(=O)N2", "target": "SCN8A (Homo sapiens, UniProt Q9UQD0)", "test": "peak sodium current, inhibitor, automated patch clamp", "test system": "HEK293", "setting": "holding potential -100 mV, with: 0.1 % BSA", "IC50 [µM]": 0.832}
{"SMILES": "C1CCc2c(c(N3CCNCC3)nc3sc4c(N5CCNCC5)nnnc4c23)C1", "target": "bglR", "IC50 [µM]": "0.032 ± 0.002"}
{"SMILES": "Cc1ccc(N2CCN(C)CC2)cc1C(=O)NC1(c2ccc3c4c(cccc24)CC3)CC1", "target": "Replicase polyprotein 1a papain-like protease", "test": "cell-free assay", "IC50 [µM]": 0.0182}
{"SMILES": "COC1C(O)C(COP(=O)(O)OP(=O)(O)OP(=O)(O)O)OC1n1cnc2c(=O)[nH]c(N)nc21 (centres unmarked)", "target": "OPG122", "IC50 [µM]": 27}
{"SMILES": "CCCc1ccc(Oc2cccc(CBr)c2)c(O)c1", "target": "enoyl-ACP reductase (Bacillus anthracis, UniProt A0A6L8PBX8)", "IC50 [µM]": "20.3 ± 1.3"}
{"SMILES": "CC[C@H](C)[C@@H]1NC(=O)[C@H](CCCNC(=N)N)NC(=O)[C@H](CO)NC(=O)[C@H](CCC(=O)O)NC(=O)[C@H](CC(=O)O)NC(=O)CNC(=O)CNC(=O)[C@H]([C@@H](C)O)NC(=O)[C@H](Cc2ccccc2)NC(=O)[C@H](CO)NC(=O)[C@H]([C@@H](C)O)NC(=O)[C@H](C)NC(=O)[C@@H]2CSSC[C@@H](C(=O)N[C@@H](Cc3ccc(O)cc3)C(=O)N[C@@H](Cc3ccccc3)C(=O)N[C@H](C(=O)N[C@H](C(=O)NCC(=O)O)[C@@H](C)O)[C@@H](C)O)NC(=O)[C@H]([C@@H](C)O)NC(=O)[C@H](CSSC[C@H](NC(=O)[C@H](CCC(=O)O)NC(=O)[C@H](CO)NC(=O)[C@H](CCCCN)NC(=O)[C@H](Cc3ccc(O)cc3)NC(=O)[C@@H]3CCCN3C(=O)[C@H](Cc3ccccc3)NC(=O)[C@H](CCCCN)NC(=O)[C@H](CCCNC(=N)N)NC(=O)[C@H](CCCCN)NC(=O)[C@H](CCCCN)NC(=O)[C@H](Cc3ccc(O)cc3)NC(=O)[C@@H]3CCCN3C(=O)[C@@H](NC(=O)[C@H](CC(=O)O)NC(=O)[C@H](CCCCN)NC(=O)[C@H](CCCCN)NC(=O)[C@@H](NC(=O)[C@@H](NC(=O)[C@@H](N)CCC(=O)O)C(C)C)[C@@H](C)CC)[C@@H](C)O)C(=O)N[C@@H](CC(C)C)C(=O)N[C@@H](CCCCN)C(=O)N[C@@H](C)C(=O)N2)NC(=O)[C@H](CCCCN)NC(=O)[C@H](Cc2ccccc2)NC(=O)[C@H](Cc2ccccc2)NC(=O)CNC(=O)[C@@H]2CCCN2C(=O)[C@H](CCCCN)NC(=O)CNC(=O)[C@H](CCC(=O)O)NC(=O)[C@H](CCC(N)=O)NC1=O", "target": "KCNQ5 (Homo sapiens, UniProt Q9NR82)", "test": "ion current, inhibitor, patch clamp", "IC50 [µM]": 2.7}
{"SMILES": "O=C(OC1Cc2c(O)cc(O)cc2OC1c1cc(O)c(O)c(O)c1)c1cc(O)c(O)c(O)c1 (single isomer, unassigned; (-))", "target": "Nucleoprotein (Severe acute respiratory syndrome coronavirus 2, UniProt P0DTC9)", "test": "nucleoprotein-RNA binding, inhibitor, HTRF", "setting": "with: RNA 50 nM", "IC50 [µM]": "0.68 ± 0.09"}
{"SMILES": "C[C@@H]1CN(c2nnnc3c2sc2nc(N4CCOCC4)c4c(c23)CCCC4)CCN1", "target": "bglR", "IC50 [µM]": "0.9 ± 0.1"}
{"SMILES": "CCC(C(=O)Nc1ccccc1F)n1cccc2nc(SCc3ccc(F)cc3)nc1-2 (centres unmarked)", "target": "rep papain-like protease", "test": "enzyme activity, inhibitor", "IC50 [µM]": "> 100"}
{"SMILES": "N#CC(CC1CCCNC1=O)NC(=O)C(CC1CC1)NC(=O)c1cc2cc(F)cc(F)c2[nH]1 (centres unmarked)", "target": "Procathepsin L (CTSL, Homo sapiens, UniProt P07711)", "test": "enzyme activity, inhibitor", "setting": "pH 5, with preincubation", "IC50 [µM]": 6}
{"SMILES": "Nc1nc2c(ncn2C2OC(COP(=O)(O)OP(=O)(O)O)C(O)C2O)c(=O)[nH]1 (centres unmarked)", "target": "OPG122", "IC50 [µM]": 171}
{"note": "Excerpt of the above:"}
{"SMILES": "CCCCCCCC(O)CC(=O)CCc1ccc(O)c(OC)c1 (centres unmarked)", "target": "Transcriptional activator VP30, with NP peptide (VP30, Zaire ebolavirus, UniProt Q05323)", "test system": "Ebola virus", "IC50 [µM]": 62}
{"SMILES": "Nc1ncnc2c1ncn2C1OC(COP(=O)(O)OP(=O)(O)OP(=O)(O)O)C(O)C1O (centres unmarked)", "target": "OPG122", "IC50 [µM]": 84}
{"SMILES": "COC1C(O)C(COP(=O)(O)OP(=O)(O)OP(=O)(O)O)OC1n1cnc2c(=O)[nH]c(N)nc21 (centres unmarked)", "target": "OPG122", "IC50 [µM]": 27}
